Measurements of several laboratories.
Parts stem from different laboratories: compare values within a part only. Substitutions count along the parent as printed.

Block 1 — method: protein binding microarray; molecule type: double-stranded DNA, one strand shown; matrix: in vitro; concentration: not given; relative to: not given; direction: higher = stronger binding
Target: Histone acetyltransferase KAT6A, winged helix 1, GST fusion (KAT6A, Homo sapiens, UniProt Q92794, residues 1-85)
Notes: 8-mer, flanks averaged, mean of 2 arrays, mostly near background
Target sequence (chain): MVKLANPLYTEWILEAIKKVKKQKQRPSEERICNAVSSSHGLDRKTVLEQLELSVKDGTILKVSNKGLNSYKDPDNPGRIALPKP
`CAATTCTG` has an E-score of -0.0859.
For `CCGCGCTA`, the E-score was 0.371.
`GCAGTCCC` gave an E-score of -0.0249.
`GTATCATA` has an E-score of -0.0623.
`ATTAGAGA` gave an E-score of -0.113.
With `GAGTATAA` the E-score was -0.00859.
The E-score of `CGAAGCCG` is reported as 0.32.
For `CCTTTCAA`, the E-score was -0.179.
For `AGGAACAC`, the E-score was -0.088.
The E-score of `GGAACGCA` is reported as 0.0906.
The E-score of `AGGTCGCA` is reported as 0.125.
With `AGAGCTCC` the E-score was 0.0393.
With `CCGCGAAC` the E-score was 0.319.
The E-score of `CGCTGTTC` is reported as 0.151.
For `CTTATAAG`, the E-score was 0.0383.
With `ACACTCAA` the E-score was -0.15.
`AAAGAAAC` gave an E-score of -0.0882.
`CAGCTTTC` has an E-score of -0.0646.
For `CTACGACC`, the E-score was -0.0592.
With `CGTGGCCA` the E-score was -0.086.

Block 2 — target: UBE2J1 UBC core domain (UniProt Q9Y385); method: yeast two-hybrid; matrix: yeast; notes: mostly zero background; relative to: not given; direction: higher = stronger interaction
B1: RNF43 RING domain (UniProt Q68DV7); chain SGSSCSSAPVCAICLEEFSEGQELRVISCLHEFHRNCVDPWLHQHRTCPLCMFNITEGDSFS
B2: RNF4 RING domain (UniProt P78317); chain TGLRPSGTVSCPICMDGYSEIVQNGRLIVSTECGHVFCSQCLRDSLKNANTCPTCRKKINHKRYHP
B3: RNF149 RING domain (UniProt Q8NC42); chain EKGIDVDAENCAVCIENFKVKDIIRILPCKHIFHRICIDPWLLDHRTCPMCKLDVIKALGYW
B4: TRIM15 RING domain (UniProt Q9C019); chain SLKVVHELPACTLCAGPLEDAVTIPCGHTFCRLCLPALSQMGAQSSGKILLCPLCQEEEQAETPMA
B5: MSL2 RING domain (UniProt Q9HCI7); chain LLPYFRQSLSCCVCGHLLQDPIAPTNSTCQHYVCKTCKGKKMMMKPSCSWCKDYEQFEENKQ
B6: RNF150 RING domain (UniProt Q9ULK6); chain DKETESDFDNCAVCIEGYKPNDVVRILPCRHLFHKSCVDPWLLDHRTCPMCKMNILKALGIP
B7: TRIM55 RING domain (UniProt Q9BYV6); chain TMDNLEKQLICPICLEMFTKPVVILPCQHNLCRKCASDIFQASNPYLPTRGGTTMASGGRFRCPSCRHEVVLDRHG
B8: PHF7 RING domain (UniProt Q9BWX1); chain IQHGHVGEESCILCCEDLSQQSVENIQSPCCSQAIYHRKCIQKYAHTSAKHFFKCPQCNNRKEFPQEML
B9: TRIM3 RING domain (UniProt O75382); chain VQPMDKQFLVCSICLDRYQCPKVLPCLHTFCERCLQNYIPAQSLTLSCPVCRQTSILPEQGV
Residues (chain): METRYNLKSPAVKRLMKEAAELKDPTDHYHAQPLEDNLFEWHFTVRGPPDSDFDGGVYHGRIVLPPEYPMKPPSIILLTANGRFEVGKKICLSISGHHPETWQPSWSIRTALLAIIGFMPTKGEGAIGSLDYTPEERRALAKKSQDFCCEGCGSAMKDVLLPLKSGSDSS
Under “lacZ reporter activity”, `B1 (RNF43 RING domain)` is recorded as 0.
For `B2 (RNF4 RING domain)`, “lacZ reporter activity” read 0.
`B3 (RNF149 RING domain)` — result for “lacZ reporter activity”: 0.
For `QLQDEEDDSLCRICMDAVIDCVLLECGHMVTCTKCGKRMSECPICRQYVVRAVHVF (RNF34 RING domain (UniProt Q969K3))`, “lacZ reporter activity” read 0.
`B4 (TRIM15 RING domain)`: “lacZ reporter activity” 0.
`B5 (MSL2 RING domain)` — result for “lacZ reporter activity”: 0.
`B6 (RNF150 RING domain)` — result for “lacZ reporter activity”: 0.
For `KRQCSDVDDICSICQAEFQKPILLICQHIFCEECMTLWFNREKTCPLCRTVISDHINKW (RNFT1 RING domain (UniProt Q5M7Z0))`, “lacZ reporter activity” read 0.
`B7 (TRIM55 RING domain)`: “lacZ reporter activity” 0.
`B8 (PHF7 RING domain)` — result for “lacZ reporter activity”: 0.
`KIKDLNEHIVCCLCAGYFVDATTITECLHTFCKSCIVKYLQTSKYCPMCNIKIHETQPLL (PCGF1 RING domain (UniProt Q9BSM1))`: “lacZ reporter activity” 0.
`B9 (TRIM3 RING domain)` — result for “lacZ reporter activity”: 0.

Block 3 — target: HLF, bZIP domain (human); method: DHFR protein complementation; matrix: yeast; relative to: wild-type JUN-FOS pair; direction: higher = stronger binding
Notes: single substitutions, most at no-binding floor
Starting sequence: JUN, bZIP domain (human); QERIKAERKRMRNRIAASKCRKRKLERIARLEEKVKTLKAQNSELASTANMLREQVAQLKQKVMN; partner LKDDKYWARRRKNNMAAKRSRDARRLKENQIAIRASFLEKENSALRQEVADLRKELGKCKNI
For `R53S`, the binding fitness was -1.5 natural log.
`K36V` gave a binding fitness of -1.46 natural log.
`A49Y` has a binding fitness of -1.16 natural log.
`L31F` gave a binding fitness of -1.13 natural log.
`A49H` has a binding fitness of -1.55 natural log.
For `N42R`, the binding fitness was -1.46 natural log.
For `A29W`, the binding fitness was -1.48 natural log.
For `A46E`, the binding fitness was -1.43 natural log.
`E33A` has a binding fitness of -1.45 natural log.
`S43T` has a binding fitness of -1.15 natural log.
For `A46L`, the binding fitness was -1.34 natural log.
The binding fitness of `E54W` is reported as -1.5 natural log.
`A29H` has a binding fitness of -1.41 natural log.
`Q55Y` has a binding fitness of -1.68 natural log.
`E44N` has a binding fitness of -1.57 natural log.
`T48R` has a binding fitness of -1.37 natural log.
For `R30S`, the binding fitness was -1.45 natural log.
For `L31D`, the binding fitness was -1.36 natural log.

Block 4 — method: protein-binding microarray; molecule type: double-stranded DNA, one strand shown; matrix: in vitro; concentration: 250 nM; notes: 60-bp whole probe; added: salmon DNA 0.4 mg/ml; relative to: random background probes; direction: higher = stronger binding; constant ends, left off below: GCCTAGCAC … GTCTTGATTCGCTTGACGCTGCTG
Target: Interferon regulatory factor 7, full length, phosphomimetic (IRF7, Homo sapiens, UniProt Q92985, residues 1-503, S101K/S471D/S472D/S475D/S476D/S477D/S483D/S484D/S487D)
Construct (chain): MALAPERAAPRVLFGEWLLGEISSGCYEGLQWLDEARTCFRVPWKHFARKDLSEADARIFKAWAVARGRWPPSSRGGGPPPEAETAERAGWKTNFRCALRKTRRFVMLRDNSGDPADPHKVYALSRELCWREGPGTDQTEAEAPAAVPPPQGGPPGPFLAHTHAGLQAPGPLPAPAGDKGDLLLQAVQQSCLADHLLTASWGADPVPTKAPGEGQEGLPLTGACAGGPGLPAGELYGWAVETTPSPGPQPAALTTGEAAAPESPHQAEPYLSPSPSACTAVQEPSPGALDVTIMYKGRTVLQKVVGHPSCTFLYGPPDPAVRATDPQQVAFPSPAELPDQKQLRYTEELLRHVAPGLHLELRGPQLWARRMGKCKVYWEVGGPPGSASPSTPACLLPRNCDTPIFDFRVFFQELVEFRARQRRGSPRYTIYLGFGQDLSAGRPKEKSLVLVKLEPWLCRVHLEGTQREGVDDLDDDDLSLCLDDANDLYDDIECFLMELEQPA
With `TTCTATATTTGCTTCAGGTTGTGCTAG` the log fluorescence was 0.429 z-score.
The log fluorescence of `GACGGTTTCCCTCTCCTGACGTGCTAG` is reported as 1.78 z-score.
`TCAAGTTTCCATTTTCTACTGTGCTAG` has a log fluorescence of 6.86 z-score.
`TTAGGACTGCTTTTCCTATAGTGCTAG` gave a log fluorescence of 1.42 z-score.
With `TCACCTACAGGTTCTCTGACTGTGCTA` the log fluorescence was -0.706 z-score.
`GACGATCTCAGACTGGAGCCGTGCTAG` has a log fluorescence of -0.224 z-score.
With `TTAGGACTGCTTCTCCTGTAGTGCTAG` the log fluorescence was 0.547 z-score.
`TTCGATATCAGTATCGATTAGTGCTAG` gave a log fluorescence of 0.784 z-score.
The log fluorescence of `GACGGACTGGACTTTCGCGACGTGCTA` is reported as -0.911 z-score.
`AACGATCTCAGACTGGAGACGTGCTAG` has a log fluorescence of -0.191 z-score.
With `TTAGGTATGGGGTATCGGTTAGTGCTA` the log fluorescence was -0.0688 z-score.
The log fluorescence of `GACGGTTCCGGTTTCGGTACGTGCTAG` is reported as 8.3 z-score.
`TTAGATATCATTTTCGATTAGTGCTAG` has a log fluorescence of 2.83 z-score.
The log fluorescence of `GACGGACTGGACACTAGGGACGTGCTA` is reported as -0.549 z-score.
The log fluorescence of `GACGGACTGCTACTGCTGTCGTGCTAG` is reported as -0.639 z-score.
With `GACGATTTCAGTCTCGACACGTGCTAG` the log fluorescence was 0.302 z-score.
The log fluorescence of `TTAGGACTTGGGACTGGGTTAGTGCTA` is reported as -0.372 z-score.
`TTAGGTTTCCTTATCCTTTTGTGCTAG` gave a log fluorescence of 3.07 z-score.
The log fluorescence of `TTAGGACTGCTTTCCCTTTAGTGCTAG` is reported as 1.87 z-score.
For `TTAGTACTGGACTTTCGGTTAGTGCTA`, the log fluorescence was 1.04 z-score.
For `GACGGTTTCCAACTGCTGACGTGCTAG`, the log fluorescence was 1.66 z-score.
The log fluorescence of `GGCGGTCTCGGTCTCGGGACGTGCTAG` is reported as 0.836 z-score.
`ATCTCACTCTGTCCCTCTGTGTGCTAG` gave a log fluorescence of 0.576 z-score.
The log fluorescence of `TCACCTCTCAACCATCCTACTGTGCTA` is reported as 0.284 z-score.
`TGTGCTTTCCTGATGACCCTGTGCTAG` has a log fluorescence of 0.18 z-score.

For quick reference, copied from above (block 3):
`A49Y` has a binding fitness of -1.16 natural log.
`L31F` gave a binding fitness of -1.13 natural log.
`A49H` has a binding fitness of -1.55 natural log.
For `N42R`, the binding fitness was -1.46 natural log.
For `A29W`, the binding fitness was -1.48 natural log.
For `A46E`, the binding fitness was -1.43 natural log.
`E33A` has a binding fitness of -1.45 natural log.
`S43T` has a binding fitness of -1.15 natural log.
For `A46L`, the binding fitness was -1.34 natural log.
The binding fitness of `E54W` is reported as -1.5 natural log.
